# Results gathered from unrelated publications.
# Every numbered part comes from another study and shows a few of its results, in no order. Substitutions count along the parent as printed.

# Set 1 — method: RNA Bind-n-Seq; molecule type: RNA; sample: in vitro; tested at: not given; baseline: input RNA pool; direction: higher = stronger binding
# Target: RING finger protein unkempt homolog, zinc fingers 1-6, GST-SBP tag (UNK, Homo sapiens, UniProt Q9C0B0, residues 30-357)
# Chain of UniProt Q9C0B0 (30-357, looked up): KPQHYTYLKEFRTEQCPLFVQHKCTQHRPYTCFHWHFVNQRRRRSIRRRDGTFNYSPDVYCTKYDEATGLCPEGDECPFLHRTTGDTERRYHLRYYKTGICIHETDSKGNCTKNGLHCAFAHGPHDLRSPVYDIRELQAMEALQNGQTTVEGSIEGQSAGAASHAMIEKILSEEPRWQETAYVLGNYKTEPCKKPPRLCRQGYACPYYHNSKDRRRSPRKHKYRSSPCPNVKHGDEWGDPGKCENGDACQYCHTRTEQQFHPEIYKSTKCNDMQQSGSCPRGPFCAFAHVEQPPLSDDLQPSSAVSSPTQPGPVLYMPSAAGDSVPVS
# Notes: RNA with constant flanks, human and mouse sites, ends assumed
# Constant ends, left off below: GGGAGUUCUACAGUCCGACGAUC … CAACAGAGGAUUGAGCAUCA
Oligonucleotide,bound/input enrichment [ratio]
UUUAGGGCUGAACACAGGAUAAAAUGAAAGGAAUUCUUAGGAGCUUGGACCAUACUUGAAGGCUAGAGAGGGUGUGCCAUUGUUAUAAAGGACAUAGUUGGUAUACAUUUUCUGCUUCCA,0.291
GUAAAUUAAAAUAUAAAUUCAUAUAAAUUCUGAAACCCAUACUUGAACAAUGUGAGGAGAUAGUUAAGGGGGAAAUCAAGGGUAAACUUGAUGUUUUCUACACAUGUUGACAGUAAGUGU,3.54
CAGUGUGCAAUUCUUUCUCCGGCAUUUAAAGUUAGAGAGUUCUCUGUCACCGAUGCAGUUCCUUUUCCAAUAUCUCUGGUCUGGAACCACGACUCGGAAGAAACGGAAGGUGUGCACGAG,0.267
AAGAUUUAAUAUAUAAAGAUUUAAUAUGAGUUAAACAUGUUUCUUAUUCUGUGAUCUCUAAUUAGAAAGUAAAAUUCUGUUGCCAUAAAUAUAAAAGAAAGUUUUCACUUAUAUUUUAGU,4.94
AAAAUCCUCCCUCAAAGGAUUCGGGAGCUGGUCCCCGAGUCCCAGGCUUACAUGGACCUCUUGGCAUUUGAGAGGAAACUGGAUCAAACCAUCAUGCGGAAGCGGGUGGACAUCCAGGAG,0.121
ACAGUAAAAGCUGCAGAAAUGGCCCAGCGUUUGAGUGGGAUUAAUCGAUGGUGUAUCAGUGGCACUCCAGUACAGAGAGGAUUAGAGGAUCUUUUUGGGUUAGUGGUCUUUCUUGGUAUU,0.347
AAGGAUUAAGCCUGAGAACUGUGUAAAUCAUUAAGCUAUGCUCUUUGUGUAUGGAGGUUGCAAAAAAAGGCACCUCCUUUAGACUGAAUCUUUUGUGCUGAAAUUUUUCUUACAUGAUGA,0.203
GUGUUUGAGGAGAUGAAUGUGGAUCUGCAGGAGGAGCUGCCGUCCCUGUGGAACAGCCGCGUAGGUUUCUACGUCAACACGUUCCAGAGCAUCGCGGGCCUGGAGGAAAACUUCCACAAG,0.106
GAGAACAAUGUUUUGAUUCAGUAUACUAAUGCAUGUGUAAAAGUUUGUGUUUAUGUAAGAAAACAAGUUGAGAAGAUUAAAAAUUCCAUGGAUGGGAAGAAUGUGGACACAGUUCUGAUG,0.18
CGCGGCCCCGCGACCCUCGGGGGUCGCUGAGAGGCCCGGCGUCGGCGCCGCAGCCGUCUAGGAUUUCUGUCCAAAGGCGUCCCUGGCGUCCCCAGCCCGAAGCUCCAAGCUCGGGGCUGC,0.113
ACCAUUCAGGGAAACAGCAAAGGCCCCAGAGUCAAGGAACUAAACUGUGUGAAAGAAGUGACUUUGGAUGGAAGCUUUGAGGAUACGGGGAACACUGAAAGAGAACAUCAGGUCUGCGUC,0.13

# Set 2 — target: CCNE2, cyclin fold, Cln2 fusion (human); method: yeast growth competition, sequencing; sample: yeast; notes: weak parent motif; baseline: not given; direction: higher = stronger binding
# Starting sequence: MASTL docking peptide (human); PMIAKNLMCELDE
Substitution,normalised enrichment score
PPIAKNLMCELDE [M2P],-0.0844
PMKAKNLMCELDE [I3K],0.0638
PCIAKNLMCELDE [M2C],-0.366
PMIAKNLMEELDE [C9E],-0.558
PMIAKNGMCELDE [L7G],-0.525
PMISKNLMCELDE [A4S],-0.107
PMIAMNLMCELDE [K5M],-0.311
PDIAKNLMCELDE [M2D],-0.0365
PMIAKNLMCEIDE [L11I],0.176
PMIATNLMCELDE [K5T],-0.154
PEIAKNLMCELDE [M2E],-0.181
PMIAKGLMCELDE [N6G],-0.394
PMIAQNLMCELDE [K5Q],-0.123
PMIAKNQMCELDE [L7Q],-0.166
PWIAKNLMCELDE [M2W],0.102
PMIAKELMCELDE [N6E],-0.234
PMAAKNLMCELDE [I3A],-0.0967
PMIAKNMMCELDE [L7M],-0.51
PMIAKNEMCELDE [L7E],0.421
PNIAKNLMCELDE [M2N],-0.0481
PMIAKKLMCELDE [N6K],0.182
PMIAKNLMCELHE [D12H],0.142
PMIKKNLMCELDE [A4K],0.778
PMIAKNKMCELDE [L7K],0.166
PMIAKNLMCEMDE [L11M],-0.659

# Set 3 — method: aptamer microarray, sandwich; molecule type: DNA with 2'F-ANA; sample: in vitro; tested at: 200 nM; added: Cy3 exosite-II aptamer, 400 nM; direction: higher = stronger binding; oligonucleotide: GGTTGGTGTGGTTGG
# Target: Prothrombin, mature alpha-thrombin (F2, Homo sapiens, UniProt P00734)
# Notes: whole 15-mer aptamer, many near background
Modification,mean fluorescence intensity [a.u.]
2'F-ANA at 2 5 6 7 9 10 12 13 14 15,138
2'F-ANA at 1 5 6 7 8 9 10 12 14,47.7
2'F-ANA at 2 3 4,767
2'F-ANA at 3 5 6 9 10,52.3
2'F-ANA at 1 3 6 11 12 13,392
2'F-ANA at 1 2 3 6 8 9 10 11 12 14 15,77.1
2'F-ANA at 1 3 4 6 7 8 9 12 13 14 15,76.1
2'F-ANA at 2 3 4 5 10 11 12 13 14 15,421
2'F-ANA at 1 3 6 7 8 12 15,616
2'F-ANA at 1 2 4 6 7 8 10 15,68
2'F-ANA at 1 4 6 7 8 9 10 14,45
2'F-ANA at 1 2 8 9 10 11 12 14 15,52.7
2'F-ANA at 1 3 4 6 8 9 13 14,118
2'F-ANA at 5 7 8 10 11 12 13,74.5
2'F-ANA at 1 2 3 5 9 10 12,53.3
2'F-ANA at 1 2 3 4 5 6 9 10 12 14,47.8
2'F-ANA at 1 2 4 5 6 7 10 12 15,54.2
2'F-ANA at 4 6 7 8 11 14,89.3
2'F-ANA at 1 5 6 7 9 13 15,57.6
2'F-ANA at 1 2 3 4 5 6 7 10,49.5
2'F-ANA at 1 2 6 8 10 11,51.4
2'F-ANA at 4 6 7 8 10 13 15,70.8
2'F-ANA at 2 5 6 8 9 12 13 14 15,48.1
2'F-ANA at 1 2 3 4 6 10 11 12,64.7
2'F-ANA at 1 2 3 8 10 14,51.5

# Set 4 — method: DHFR PCA, deep sequencing; sample: yeast; added: (+)-ABA 0.032 µM; baseline: wild-type fitted maximum; direction: higher = stronger binding
# Target: ABI1, truncated, D143A, DHFR fusion (Arabidopsis thaliana)
# Notes: methotrexate growth selection, single substitutions
# Starting sequence: PYL1, truncated, DHFR fusion (Arabidopsis thaliana); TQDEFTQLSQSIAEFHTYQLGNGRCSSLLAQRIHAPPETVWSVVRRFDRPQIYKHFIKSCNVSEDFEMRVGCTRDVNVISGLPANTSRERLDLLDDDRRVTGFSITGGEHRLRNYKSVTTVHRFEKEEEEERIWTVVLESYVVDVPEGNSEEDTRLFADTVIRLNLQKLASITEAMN; partner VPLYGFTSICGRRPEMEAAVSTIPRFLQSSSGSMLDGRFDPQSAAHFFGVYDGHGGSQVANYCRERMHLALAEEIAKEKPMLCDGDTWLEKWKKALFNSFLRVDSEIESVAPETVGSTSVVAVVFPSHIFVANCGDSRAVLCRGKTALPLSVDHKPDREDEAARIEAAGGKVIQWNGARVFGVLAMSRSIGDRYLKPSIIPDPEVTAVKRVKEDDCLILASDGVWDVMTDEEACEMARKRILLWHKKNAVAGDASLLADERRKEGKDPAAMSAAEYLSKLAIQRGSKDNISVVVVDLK
Substitution,relative binding score [%]
V43A,2.9
A35R,-5.13
V76A,3.25
T106A,-1.12
M68S,-1.71
I12A,2.22
W134F,23.4
T119M,4.89
W41A,-4.92
F157W,28.1
T17Y,-6.07
T173Q,-1.64
T160S,4.89
D95A,0.687
E128D,50.7
R155K,47.9

# Set 5 — method: EMSA with sequencing; molecule type: double-stranded DNA, one strand shown; sample: in vitro; tested at: 10 and 20 nM; baseline: negative control set to 0; direction: higher = stronger binding
# Target: Hepatocyte nuclear factor 3-alpha (Foxa1, Mus musculus, UniProt P35582, residues 1-468, full length assumed)
# Notes: whole designed probe, mean of two concentrations, ends assumed
# Constant ends, left off below: GTGAGCGGTGCCCATTGATGGGGAAC … TTTCACTGGGATCGTGGGGAC
# Residues (chain): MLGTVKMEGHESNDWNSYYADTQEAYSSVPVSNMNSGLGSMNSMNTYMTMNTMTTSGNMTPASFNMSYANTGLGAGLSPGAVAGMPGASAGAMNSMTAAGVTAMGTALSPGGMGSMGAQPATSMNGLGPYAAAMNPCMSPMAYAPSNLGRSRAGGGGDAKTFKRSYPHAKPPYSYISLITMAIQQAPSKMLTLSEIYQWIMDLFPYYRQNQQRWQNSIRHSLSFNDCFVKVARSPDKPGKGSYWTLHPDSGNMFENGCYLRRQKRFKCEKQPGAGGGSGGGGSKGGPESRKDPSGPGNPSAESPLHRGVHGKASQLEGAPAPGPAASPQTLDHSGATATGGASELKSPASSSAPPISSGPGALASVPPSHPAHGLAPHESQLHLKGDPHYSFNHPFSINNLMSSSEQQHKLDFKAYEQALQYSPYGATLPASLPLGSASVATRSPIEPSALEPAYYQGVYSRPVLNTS
Oligonucleotide,normalised bound fraction
TACTTATGGGTTGATTTCTGGAATCATTGCTTTATTTGGTGGTATTCACTAAGTAGGTCACTTGCATTCATTTACATAGGAAAGCTGCTTGTGTAAATAGCAAGGTCCCTTATGAGTCAGCATTACATGTCAGCATAAAGGGAGAAAACACGAAGCATTTTACAAATAATACTCTTTAGGTGAACACATTTTG,0.429 ratio
ATCTTCCCCCTCTTCCTTGCCCCACCAGCTCACCTTCCCGGGTATATTGGAGATAGGAAATTAATATAAGCCGGCATTCGTTAACCCTCTTCTGGCGCAAACTGCTGTTTGCTCTGGATCTAACATGGTCCTTTGGCGACGCCAGGCTCCGGGAGAGCAAAGCACCGTGTCAGGGCCATGATCCGGGGTGGCC,0.114 ratio
TCCCCCAAAACGTTATTGCTTGCACTGTGGGACCTGATCCAGTGGGCTGTCATGGACGAACGGCAACACCCACTGGGACCCTATTCCCTTTGTGTAAACAGAGCAGCTCCAAACCGCGGCCCTCCTGGGCCCCCTAGCGGCAGCAGCGATGGGCACAACGTTCAAAGATCCCTCAAAGCCCTCGGGGAGTGGC,0.446 ratio
ACTCTCTCACGCTCACATGCACCTTCAGTTTTTCCCTTGCTGTCCCCCCATATGGGAGGAAGAGAAGATGTCTCCAGAAGTGTGAGCAGAGTAAGTAATCTTGGAGAGTTTGTGATGCTTTGGTGACAATTACCTCTCCTTTCTGCTTCTGGCTGCTGTGGTTCCAGATGGTGGAAACGTTCCGTCCGATTCT,-0.0919 ratio
ACTATCATCCATTTTCAGAAAGAAAAATTTATGTAATGATAATGATAACCAAGGAATTATAACTAGCGGATAAAGTGAAAGTTCAGATGTCAAAGTAATCTGAGACTTCTTTGAGTTGATGTAATTCCTGAGAAAAAAATCATTTTACTATATAATAGAGATTATATAACAACTTTAATTTTCATCACAAGAG,-0.0416 ratio
TCTGGGTCATTTCCTTTTCTGGATTTAACTATTCAAAAGTCGGGGCCAGAGATACAGGAAAGTAGAGGCAGAGATCTTATTTATCGAAGTGTATGTTGGCATAGAAATTATCCTTAATCACTACTCCAGTTAGACCTTGTTCAGTCTGATGTTAGTGGTCTTTGCAGAGGATACTATATACAGTTTCCTCAAA,0.0194 ratio
TCTATATAATTTCCTTTTTCATTTTTTAAATAAATAAAAATATTAAAAAGCTAGCTTGTGTTCTACTTAGTTAATATTTAAGAGTCTGTTCATGTTTACACTGGAAAGGCAAGACTGGTATCATTGTTGATATTATTGTTATAATGTGGGAGACTCTTAGAGGCAAATCCAGGATTTTCTTCGTGTATCAAAT,0.351 ratio
TGTTAATGTAAATATCATATCCATTAGCTCCTTTGTCGTGTCTTTTGTAATTCAATGGATGAAATTATATAAGGGAATTTATAATGCTCCCTAAGTAAATATGGACTTGAAGTATAATATTTCTAAAGAGTTATGTTAATTTTATTAATTCTATTTTAGTACATTTTAGGCAACCCTTCTGGTTCTGCACTAT,0.485 ratio

# A few entries again (set 3):
Modification,mean fluorescence intensity [a.u.]
2'F-ANA at 5 7 8 10 11 12 13,74.5
2'F-ANA at 1 2 3 5 9 10 12,53.3
2'F-ANA at 1 2 3 4 5 6 9 10 12 14,47.8
2'F-ANA at 1 2 4 5 6 7 10 12 15,54.2
2'F-ANA at 4 6 7 8 11 14,89.3
2'F-ANA at 1 5 6 7 9 13 15,57.6
2'F-ANA at 1 2 3 4 5 6 7 10,49.5
2'F-ANA at 1 2 6 8 10 11,51.4
2'F-ANA at 4 6 7 8 10 13 15,70.8
2'F-ANA at 2 5 6 8 9 12 13 14 15,48.1
2'F-ANA at 1 2 3 4 6 10 11 12,64.7
2'F-ANA at 1 2 3 8 10 14,51.5
